Measurements from different studies.
Parts stem from different laboratories: compare values within a part only. Substitutions count along the parent as printed.

Study 1
Target: ABI1, truncated, D143A, DHFR fusion (Arabidopsis thaliana)
Technique: DHFR PCA, deep sequencing
Sample: yeast
Notes: methotrexate growth selection, single substitutions
Together with: (+)-ABA 0.39 µM
Reference: wild-type fitted maximum
Direction: higher = stronger binding
Starting sequence: PYL1, truncated, DHFR fusion (Arabidopsis thaliana); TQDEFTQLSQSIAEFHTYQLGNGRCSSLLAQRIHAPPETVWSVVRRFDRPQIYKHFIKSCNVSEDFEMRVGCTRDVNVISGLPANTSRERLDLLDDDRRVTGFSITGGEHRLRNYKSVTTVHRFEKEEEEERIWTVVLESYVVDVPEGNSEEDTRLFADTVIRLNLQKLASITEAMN
Variant	relative binding score [%]
R69Y	11.6
W41V	-6.7
V44Q	-5.2
S11E	62.7
E4T	27.6
Q31F	-3.23
E4H	24
R155H	2.8
F47K	-10.9
R155C	5.66
H110W	84
R46S	9.94
V43H	-4.49
T160Q	-12.5
R49M	36.1

Study 2
Target: Prothrombin, mature alpha-thrombin (F2, Homo sapiens, UniProt P00734)
Technique: aptamer microarray, sandwich
Form: DNA with 2'F-ANA
Sample: in vitro
Concentration: 200 nM
Notes: whole 15-mer aptamer, many near background
Together with: Cy3 exosite-II aptamer, 400 nM
Direction: higher = stronger binding
Sequence: GGTTGGTGTGGTTGG
Modification	mean fluorescence intensity
2'F-ANA at 1 5 7 8 9 10 11 12 13 14 15	45.8 a.u.
2'F-ANA at 2 3 6 7 8 10 12 13 14	271 a.u.
2'F-ANA at 1 2 4 7 11 12 13 15	174 a.u.
2'F-ANA at 1 2 3 4 8 10 11 14	55 a.u.
2'F-ANA at 1 3 5 9 10 11 12 13	48.7 a.u.
2'F-ANA at 1 2 10 12 13	105 a.u.
2'F-ANA at 5 7 8 11 12 13 15	102 a.u.
2'F-ANA at 5 6 11 12 15	110 a.u.
2'F-ANA at 2 3 4 5 7 8 9 10 12 13 14	56.1 a.u.
2'F-ANA at 3 9 11 12 13	1220 a.u.
2'F-ANA at 2 3 6 7 8 10 13 14	278 a.u.
2'F-ANA at 4 8 10 11 13	81.6 a.u.
2'F-ANA at 3 4 6 9 13 15	374 a.u.
2'F-ANA at 4 7 10 13 15	100 a.u.
2'F-ANA at 3 7 9 10 12 15	641 a.u.
2'F-ANA at 1 3 5 6 7 8 9 11 12 15	108 a.u.
2'F-ANA at 2 6 11 13 14	102 a.u.
2'F-ANA at 5 6 7 9 10 11 12 13	58.2 a.u.

Study 3
Target: Histone acetyltransferase KAT6A, winged helix 1, GST fusion (KAT6A, Homo sapiens, UniProt Q92794, residues 1-85)
Technique: protein binding microarray
Form: double-stranded DNA, one strand shown
Sample: in vitro
Concentration: not given
Notes: 8-mer, flanks averaged, mean of 2 arrays, mostly near background
Reference: not given
Direction: higher = stronger binding
Construct (chain): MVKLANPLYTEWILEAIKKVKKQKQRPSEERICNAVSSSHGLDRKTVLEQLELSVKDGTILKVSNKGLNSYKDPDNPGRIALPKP
Sequence	E-score
CATACGGA	0.169
AACGTACC	-0.0952
AGTCCTGC	-0.0747
CTGTAGCC	-0.15
AGCCCTGC	-0.141
AAACCGGT	0.255
GGTAAGGA	-0.0376
ATCTAGTC	-0.309
ATGGTCGA	-0.133
AATATAGC	-0.0542
ATCGTGTG	-0.163
GGACCCGA	0.135
CCTTAGTA	0.0473
GTGGTCTA	-0.101
AGATCTGC	-0.282
AATCATGT	-0.214

Study 4
Target: TAR DNA-binding protein 43, full length, His tag (TARDBP, Homo sapiens, UniProt Q13148, residues 1-414)
Technique: RNA Bind-n-Seq
Form: RNA
Sample: in vitro
Concentration: 20 nM
Notes: 6-mer, flanks averaged, single round
Together with: 150 mM LiCl
Reference: input library
Direction: higher = stronger binding
Sequence	6-mer enrichment (R)
GACACA	0.923
GCACUG	0.909
AGCAAU	0.869
ACCAAG	0.836
UCGACU	0.837
GCCAUC	0.884
GAUACU	0.834
CUAUAA	0.943
GGAACU	0.956
GAAUCU	0.838
UCUUCA	0.86
GGACUC	0.974
GUGAAC	0.992
AAAAGU	0.896

Study 5
Target: RING finger protein unkempt homolog, zinc fingers 1-6, GST-SBP tag (UNK, Homo sapiens, UniProt Q9C0B0, residues 30-357)
Sequence of UniProt Q9C0B0 (30-357, looked up): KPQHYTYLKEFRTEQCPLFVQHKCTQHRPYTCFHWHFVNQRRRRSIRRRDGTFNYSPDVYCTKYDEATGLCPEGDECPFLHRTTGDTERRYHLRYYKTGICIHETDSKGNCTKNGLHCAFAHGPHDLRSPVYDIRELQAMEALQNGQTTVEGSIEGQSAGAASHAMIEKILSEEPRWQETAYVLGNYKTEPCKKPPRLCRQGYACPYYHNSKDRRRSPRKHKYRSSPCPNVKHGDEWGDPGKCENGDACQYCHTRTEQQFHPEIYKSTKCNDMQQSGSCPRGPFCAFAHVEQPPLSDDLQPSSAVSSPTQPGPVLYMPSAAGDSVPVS
Technique: RNA Bind-n-Seq
Form: RNA
Sample: in vitro
Concentration: not given
Notes: RNA with constant flanks, human and mouse sites, ends assumed
Reference: input RNA pool
Direction: higher = stronger binding
Constant ends, left off below: GGGAGUUCUACAGUCCGACGAUC … CAACAGAGGAUUGAGCAUCA
Sequence	bound/input enrichment [ratio]
GAUCCUGAAUUUGCUGAAGAUCCAAGAAUGAUUAAAGUUGAUCUUAUCACUCUUUCUUACACUUUUUUUGAAGCAAAGGAAGGGCACAAGUUGCCAGUUCCAGGAUAUAAUUGAAGUCAG	0.114
GUAUCUGACUAUGCCCAGAUGGAUCGAGUGCUUCGAGAGGAGAGAGCCUAUAUUUUAAAUUUGGUGAAGCAAAUUAAGAAAACAGGAUGUAAUGUCCUUCUCAUACAGAAGUCUAUCCUG	0.131
ACUAUCGUUCCUGGCUAUGAUUUCUUGGUGAAUUCUGUGUGGCCAGAAAUAGUUCGAGGCCUAGAGGAAAAGCUACCCUCGCUCUUCAACCCUGGGGACCCAGACGCCUUUCACCAGAAA	0.193
GCAUGGCUUGGGAAACGUCUGAGUGCUGAAAACCCACCCAGCUUUGUUCUUCAGUCACAACCUGCAGCCUGUCGUUAAUUAUGGUCUCUGCAAGUAGAUUUCAGCCUGGAUGGUGGGGGG	0.104
GUUUCUGUUCUGUUUUUCAUUUCUAGGAAAAUACACCUUUAAUGUCAUAUUUUCUAAUCUAAAUUCUUGUACCAUCUUCUUUGGAAACGAUUAAAGUACUACUCAUUUUAUGCUUGACUC	1.2
CUUACCACCUUGUCCCAGCAGCUAGAGAAUGAAAAUGCUGUGGAUGUGUUCCAGGUGGCAAAAAUGAUCAAUCUUAUGAGACCUGGAGUAUUCACAGACAUUGAACAAUACCAGUUUGUC	0.194
GAGAGAAUGUGUGUGUGUGUGUGUGUGCGCGUGCGUGAGAGGAUAAACUUUAACCUUCCCACUAGUUUAUUCUUUUACUUUAGUGUUUUCUUAGUUAGAAAACCACUAUUAACAUUAAAU	2.38
AGGAUGGGGUUUGUGAAAGUUGUCAAGAAUAAGGCCUACUUUAAAAGAUACCAAGUGAGAUUUCGAAGGCGGCGAGAGGGUAAAACUGACUACUAUGCUCGAAAACGAUUGGUGAUCCAG	0.222
UUUACUGUUUUGGGGAGCACAGCAAGAGAGAGAGCUAAACACUCAGGCGACUACUUUACUCUUUUAAGACACCUUCUUAAUUACGCUUACAAUAGUAAUAUUAAUGUACCCAAUGCUGAA	1.2
AAGGAAUUAUAUAUUCAGCAUGCUAAAGAGGACGAAACUCGUUAUCAUAAUGAAAUGAAGUCUUGGGAAGAACAAAUGAUUGAAGUUGGACGAAAGGAUCUUCUACGUCGCACAAUAAAG	0.327
UACGAGCGGGGUGUCGCAGUCUUGUGCACAGAGUAAACUUUUCUAGCUGCCCCUUUCUGUAAUAGUGAAAGUUGGUAUUUAACAUUUAUUCAUUUUUAAAAUAUUUGGAAGGUCUGAGCU	15.9

Study 6
Target: Ras GTPase-activating protein-binding protein 1, full length (G3BP1, Homo sapiens, UniProt Q13283)
Sequence of UniProt Q13283 (whole entry, looked up): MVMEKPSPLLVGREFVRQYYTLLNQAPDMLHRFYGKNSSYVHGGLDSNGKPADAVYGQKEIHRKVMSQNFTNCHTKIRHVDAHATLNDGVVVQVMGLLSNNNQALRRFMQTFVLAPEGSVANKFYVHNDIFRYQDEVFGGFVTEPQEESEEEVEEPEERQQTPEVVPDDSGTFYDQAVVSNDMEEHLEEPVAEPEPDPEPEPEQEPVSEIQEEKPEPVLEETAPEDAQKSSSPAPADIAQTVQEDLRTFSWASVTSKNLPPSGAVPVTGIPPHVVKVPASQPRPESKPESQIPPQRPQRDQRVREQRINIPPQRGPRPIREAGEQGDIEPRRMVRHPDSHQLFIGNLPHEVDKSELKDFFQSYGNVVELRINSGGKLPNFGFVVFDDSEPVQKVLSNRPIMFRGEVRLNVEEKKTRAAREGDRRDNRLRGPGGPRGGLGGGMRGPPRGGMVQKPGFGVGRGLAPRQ
Technique: RNA Bind-n-Seq
Form: RNA
Sample: in vitro
Concentration: 200 nM
Notes: whole 134-nt RNA, ends assumed
Together with: 150 mM KCl
Reference: input library
Direction: higher = stronger binding
Constant ends, left off below: GGGAGUUCUACAGUCCGACGAUC … UGGAAUUCUCGGGUGUCAAGG
Sequence	log2 enrichment
UUCCUCAAGUCCUGUGCUACACAUCGUAUGUACCGAAUCGGAGGAGGGAGGAAAGUAUUAUGUUACGCCGUUCGGAUCUGCACUUCCAGC	-0.639
UCCUGUGCUACACAUCGUAUGUACCGAAUCGGUUUUUUGGGUUUUUUGGGGUUUUUUGGGAAAGUAUUAUGUUACGCCGUUCGGAUCUGC	-0.412
UAACUUUAGAGGAGGAUCUGAUGGAUAUGGCAGUGGACGUGGAUUUGGGGCUGGCUAUAAUGGGUAUGGAGGAGGACCUGGAGGUGGCAA	0.19
CUCAAGUCCUGUGCUACACAUCGUAUGUACCGAAUCGGAGGUUUUUUUGGAGGAAAGUAUUAUGUUACGCCGUUCGGAUCUGCACUUCCA	-0.492
UGUCUGGUGACAAGGAAGAGGAUGCUCCUCAUAGAGAAGAUUACUUUGAGCCCAUUUCUCCUGAUCGGAAUUCUGUUCCCCAGGAAGGGC	-2.03
CCUCAAGUCCUGUGCUACACAUCGUAUGUACCGAAUCGGGAGGAGGGGAGGGGAAAGUAUUAUGUUACGCCGUUCGGAUCUGCACUUCCA	1.32
GUCCUGUGCUACACAUCGUAUGUACCGAAUCGGUUUUUUUGGAAAAAGGUUUUUUUGGAAAGUAUUAUGUUACGCCGUUCGGAUCUGCAC	-1.39
UGGCCCUGGUGGCAUGCGGGGAGGAAGAGGUGGCCUCAUGGAUCGUGGUGGUCCCGGUGGAAUGUUCAGAGGUGGCCGUGGUUGAGACAG	0.0475

Study 7
Target: CCND2, cyclin fold, Cln2 fusion (human)
Technique: yeast growth competition, sequencing
Sample: yeast
Notes: weak parent motif
Reference: not given
Direction: higher = stronger binding
Starting sequence: MICAL3 docking peptide (human); LQLRRQLSFSEDS
Variant	normalised enrichment score
LKLRRQLSFSEDS [Q2K]	0.213
LQCRRQLSFSEDS [L3C]	0.638
LQLRRQLSFTEDS [S10T]	0.151
LQLRRQLVFSEDS [S8V]	0.0684
LQLRDQLSFSEDS [R5D]	0.169
LQLRRQMSFSEDS [L7M]	0.459
LQLRRQLSFSMDS [E11M]	-0.221
LQLRLQLSFSEDS [R5L]	0.253
LQLRRKLSFSEDS [Q6K]	0.381
LQLRRQLSFSEIS [D12I]	0.121
LQLRRQLSFMEDS [S10M]	0.503
LQLRRQLLFSEDS [S8L]	0.166
LQLRRHLSFSEDS [Q6H]	-0.0114
LQLSRQLSFSEDS [R4S]	0.403
LQDRRQLSFSEDS [L3D]	0.0024

Some of these lines once more (study 7):
Variant	normalised enrichment score
LQLSRQLSFSEDS [R4S]	0.403
LQLRRQLSFMEDS [S10M]	0.503
LQLRDQLSFSEDS [R5D]	0.169
LQLRRQLVFSEDS [S8V]	0.0684
LKLRRQLSFSEDS [Q2K]	0.213
LQLRRQLSFSMDS [E11M]	-0.221
LQLRRHLSFSEDS [Q6H]	-0.0114
